Measurements collected from several papers.
Each line is one published result; not all experiments were run side by side. Values joined by “and” are separate records of one study, mostly repeats; a detail may differ. ± gives the spread as reported.

| SMILES | test | system | setting | how to read | quantity | value |
| --- | --- | --- | --- | --- | --- | --- |
| COc1ccccc1-c1n[nH]c2nc(NC3CCN(C(=O)Cc4ccc(F)cc4F)CC3)ncc12 | bead binding, competition bead pull-down, measured: LINJ.36.5330 | Leishmania donovani extract | 10 µM | baseline: vehicle | relative abundance | 1.01 |
| COc1cccc(OCCN2CCC[C@H](CN3CCc4cc(OC)c(OC)cc4CC3=O)C2)c1 | – | C57BL/6J mouse, male, stress-naive | intraperitoneal, 5 mg/kg, 14 d post-dose | baseline: before dosing | time in interaction zone, target present | no effect |
| Cc1ccc(C2=CC(C)(C)Oc3ccc(-c4ccc(-c5ccc(C(=O)O)cc5)[nH]4)cc32)cc1 | histology | CD1 mouse male, testis | 20 mg/kg/day for 2 weeks, 1 day after end of dosing, males with severe disruption | – | spermatids failing translocation | 7.7% |
| CN[C@@H]1C[C@H]2O[C@@](C)([C@@H]1OC)n1c3ccccc3c3c4c(c5c6ccccc6n2c5c31)C(=O)NC4 | annexin V flow cytometry | pancreatic islet cells, mouse | 1 µM, 24 h | – | early apoptotic cells | 34.6% |
| O=C(O)c1ccc(-c2nc(-c3ccccc3Cl)c3sccn23)cc1 | – | mouse | dose not given, day 11, added: 5-fluorouracil | baseline: body weight | spleen weight | 0.0051% and 0.0035% and 0.0048% and 0.0043% |
| CCCCCC1=C(NCC)C(=O)C(C/C=C(\C)CCC=C(C)C)=C(O)C1=O | RNA-Seq, measured: Ifit3 mRNA | mice, AAV9-A53T α-synuclein lesion, lesioned striatum | oral, dose not given | baseline: vehicle-treated lesioned mice | log2 fold change | 1.13 |
| CC(C)C[C@@H]1NC(=O)[C@@H](Cc2c[nH]c3ccccc23)NC(=O)[C@H](CCCNC(=N)N)NC(=O)[C@@H](CCC(=O)O)NC(=O)[C@H](CCC(N)=O)NC(=O)[C@@H](CCC(=O)O)NC(=O)[C@H](CCCNC(=N)N)NC(=O)[C@@H](Cc2c[nH]c3ccccc23)NC1=O | Luminex, measured: MIP-1beta | LDLr-/- mouse, Western diet, liver | dose not given, 4 weeks | – | CCL4 level | 3000 ± 1800 pg/g tissue |
| CN(C)c1ncnc2c1ncn2[C@@H]1O[C@H](CCl)[C@@H](NC(=O)[C@H](N)CSC(c2ccccc2)c2ccccc2)[C@H]1O | protein synthesis, measured: GFP | human cell-free translation | 25 µM | – | inhibition | 0% |
| COc1ccccc1-c1n[nH]c2nc(N[C@H]3CC[C@H](NS(=O)(=O)CC(C)C)CC3)ncc12 | bead binding, competition bead pull-down, measured: LINJ.36.4380 | Leishmania donovani extract | 10 µM | baseline: vehicle | relative abundance | 0.8 |
| O=C(Cc1ccc(Cl)c(Cl)c1)N1CCN(CC2CCC2)[C@@H]2COC[C@H](N3CCCC3)[C@H]21 (single isomer, unassigned) | antagonist | male C57BL/6 mice, serum | 3 mg/kg, 15 min, KOR target engagement, added: KOR agonist 30 mg/kg | – | serum prolactin | inhibited |
| CC(C)C[C@H](NC(=O)[C@H](CC(=O)O)NC(=O)CNC(=O)[C@@H](N)CCCNC(=N)N)C(=O)N[C@@H](C)C(=O)N[C@H](C(=O)N[C@@H](CC(C)C)C(=O)N[C@@H](CCCNC(=N)N)C(=O)N[C@@H](CCC(N)=O)C(=O)N[C@@H](CC(C)C)C(=O)N[C@@H](C)C(=O)N[C@@H](CCC(N)=O)C(=O)N[C@@H](CCC(=O)O)C(=O)N[C@@H](CC(=O)O)C(=O)NCC(=O)N[C@H](C(=O)N[C@H](C(=O)NCC(=O)N[C@H](C(=O)N[C@@H](CCCNC(=N)N)C(=O)NCCOCCOCCOCCOCCOCCOCCOCCOCCOCCOCCOCCOCCC(=O)N[C@@H](CS)C(N)=O)C(C)C)C(C)C)C(C)C)[C@@H](C)O | phage binding | panel of 11 cancer lines | selectivity at least 20 | – | number of cell lines | 1 |
| CCc1nnc(-c2c(OC)cc(-c3cnc4cc(-c5cnn(C)c5)ccn34)cc2OC)o1 | histomorphometry | male C57BL/6J mouse, tibia | oral gavage, 10 mg/kg once daily, 3 wk | – | trabecular bone volume fraction | 15.2 ± 1.37% |
| CCN(Cc1ccccc1)C(=O)CCc1nc(CN2CCN(C(=O)Cc3ccc(OC)c(OC)c3)CC2)no1 | current clamp | DRG neurons, naive rat | 1 µM, added: 500 pA current injection | – | action potential number | 1.78 ± 0.42 |
| Cc1ccc(S(=O)(=O)N2CC2C(=O)N(C)C)cc1 (centres unmarked) | – | mouse, Lewis lung carcinoma | intraperitoneal, 170 mg/kg, 16 doses, day 12 | – | tumour growth inhibition | 11% |
| O=C(NCc1cc(F)cc(F)c1)[C@@]1(O)CCN(c2ccc3[nH]ccc3c2)C1=O | – | sample F PDX mouse | dose not given, RTV endpoint 500% | – | median survival time | > 80 days |
| CC(C)NCCCn1c(Sc2cc3c(cc2I)OCO3)nc2c(N)ncnc21 | – | human | 300 mg/m^2 | – | time since remission | > 450 days |
| CC(C)C[C@H](N)C(=O)N[C@@H](CCC(=O)O)C(=O)N[C@@H](CCC(=O)O)C(=O)N[C@@H](CCCCN)C(=O)N[C@@H](CCCCN)C(=O)N[C@@H](Cc1ccc(O)cc1)C(=O)N[C@@H](CC(N)=O)C(=O)N[C@@H](Cc1ccc(O)cc1)C(=O)N[C@H](C(=O)N[C@H](C(=O)N[C@H](C(=O)N[C@@H](CC(=O)O)C(=O)N[C@@H](Cc1c[nH]cn1)C(=O)O)[C@@H](C)O)C(C)C)C(C)C | – | mouse, GL261/vIII intracranial glioma | subcutaneous, 100 µg, days 0, 7, 14, added: Montanide | – | median survival | 42 days |
| CSCC[C@H](NC(=O)[C@@H](NC(=O)[C@H](CCC(N)=O)NC(=O)[C@H](CO)NC(=O)[C@@H](N)C(C)C)[C@@H](C)O)C(=O)N[C@@H](CCCNC(=N)N)C(=O)N[C@@H](CCC(N)=O)C(=O)N[C@H](C(=O)N[C@@H](C)C(=O)N[C@H](C(=O)N1CCC[C@H]1C(=O)N[C@@H](CC(C)C)C(=O)N[C@@H](CC(C)C)C(=O)N[C@@H](Cc1c[nH]c2ccccc12)C(=O)N[C@@H](Cc1ccccc1)C(=O)N[C@@H](Cc1c[nH]c2ccccc12)C(=O)N[C@H](C(=O)NCC(=O)N[C@@H](CO)C(=O)N[C@@H](CC(C)C)C(=O)NCCOCCOCCOCCOCCOCCOCCOCCOCCOCCOCCOCCOCCC(=O)N[C@@H](CS)C(N)=O)[C@@H](C)O)C(C)C)[C@@H](C)O | phage binding | NSCLC cell line panel | selectivity at least 20 | – | number of cell lines | 8 |
| O=c1n(CCNCCOS(=O)(=O)c2ccccc2)c(=O)n(S(=O)(=O)c2ccccc2)c(=O)n1S(=O)(=O)c1ccccc1 | DPPH scavenging | – | 125 µg/mL | – | inhibition | 49% |
| C[C@]12C(=O)[C@](C)(C(c3ccccc3)=C1c1ccccc1)C1(Br)C(=O)N(CCN)C(=O)C12 (some centres unmarked) | HPLC, measured: CO-release by-product | TRIS-sucrose buffer | pH 7.4, 37 °C | – | time to 50% conversion | 23 min and 19 min and 16 min and 18 min |
